Published values of several laboratories.
Compare with care: the assays were run in different laboratories. Values joined by “and” are separate records of one study, mostly repeats; a detail may differ. ± marks the error that the study gave.

For CCCC[C@H](NC(=O)CNC(=O)CNC(=O)CN1CCN(CC(=O)O)CCN(CC(=O)O)CC1)C(=O)N[C@H]1CC(=O)NCCCC[C@@H](C(N)=O)NC(=O)[C@H](Cc2c[nH]c3ccccc23)NC(=O)[C@H](CCCNC(=N)N)NC(=O)[C@@H](Cc2ccccc2)NC(=O)[C@H](Cc2c[nH]cn2)NC1=O [gallium-67 labelled], the tissue uptake was 11.67 ± 0.06 %ID/g (female C57 mice, B16/F1 melanoma, kidneys; intravenous, 0.037 MBq, 0.5 h).
CCCC[C@@H]1NC(=O)[C@@H](NC(=O)[C@H](CCC(=O)O)NC(=O)CNC(=O)CN2CCN(CC(=O)O)CCN(CC(=O)O)CCN(CC(=O)O)CC2)CCCCNC(=O)C[C@@H](C(N)=O)NC(=O)[C@H](C(C)C)NC(=O)[C@@H]2CCCN2C(=O)[C@H](CCCNC(=N)N)NC(=O)CNC(=O)[C@H](Cc2c[nH]c3ccccc23)NC(=O)[C@H](CCCNC(=N)N)NC(=O)[C@@H](Cc2ccccc2)NC(=O)[C@H](Cc2c[nH]cn2)NC(=O)[C@H](CCC(=O)O)NC1=O [gallium-67 labelled] gave a tissue uptake of 0.24 ± 0.07 %ID/g (normal C57 mice, heart; intravenous, 0.037 MBq, 4 h).
With CN1C(=O)[C@@H](Cc2ccc(O)c(I)c2)NC(=O)CNC(=O)[C@H](Cc2ccc3ccccc3c2)NC(=O)[C@H](CCCNC(=N)N)NC(=O)[C@H]1CCCNC(=O)c1ccc(CNC(=O)CN2CCN(CC(=O)O)CCN(CC(=O)O)CCN(CC(=O)O)CC2)cc1 [lutetium-177 labelled] the tissue uptake was 0.3 ± 0.1 %ID/g (measured: 177Lu radioactivity; female CB-17 SCID mice, Daudi xenograft, muscle; intravenous, 0.16 nmol per mouse, 1 h).
The tissue uptake of O=C([O-])c1cccc(CN(CCN(Cc2cn(Cc3ccccc3)nn2)Cc2cccc(C(=O)[O-])n2)Cc2cn(Cc3ccccc3)nn2)n1.[64Cu+2] is reported as 6.84 %ID/g (healthy athymic nude mice, kidney; intravenous, 1 h).
NC12CNCCNCC(NCc3ccc(CNC(=O)CCCC(=O)NCc4ccc(-c5nncnn5)cc4)cc3)(CNCCNC1)CNCCNC2.[64Cu+2] gave a tissue uptake of 1.9 %ID/g and 1.87 %ID/g (athymic nude mice SW1222 xenograft, kidney; 12 h post injection, 24 h accumulation interval, with: huA33-TCO pretargeting).
The tissue uptake of CC(C)[C@H](NC(=O)[C@@H]1CCCN1C(=O)[C@H](CCCNC(=N)N)NC(=O)[C@H](CS)NC(=O)[C@H](Cc1c[nH]c2ccccc12)NC(=O)[C@H](CCCNC(=N)N)NC(=O)[C@@H](Cc1ccccc1)NC(=O)[C@H](Cc1c[nH]cn1)NC(=O)[C@H](CCC(=O)O)NC(=O)[C@H](CS)NC(=O)[C@H](CS)NC(=O)CNC(=O)[C@@H]1CC(=O)N[C@@H](CCCNC(=N)N)C(=O)NCC(=O)N[C@@H](CC(=O)O)C(=O)N[C@H](Cc2ccc(O)cc2)C(=O)N1)C(N)=O [technetium-99m labelled] is reported as 3.23 ± 1.01 %ID/g (C57 mice B16/F1 melanoma female, kidneys; iv, 0.037 MBq, 24 h).
For CCCC[C@H](NC(=O)CNC(=O)CNC(=O)CN1CCN(CC(=O)O)CCN(CC(=O)O)CCN(CC(=O)O)CC1)C(=O)N[C@H]1CC(=O)NCCCC[C@@H](C(N)=O)NC(=O)[C@H](Cc2c[nH]c3ccccc23)NC(=O)[C@H](CCCNC(=N)N)NC(=O)[C@@H](Cc2ccccc2)NC(=O)[C@H](Cc2c[nH]cn2)NC1=O [gallium-67 labelled], the tissue uptake was 2.51 ± 0.5 %ID/g (female C57 mice, B16/F1 melanoma, stomach; intravenous, 0.037 MBq, 0.5 h).
O=C([O-])CN1CCN(CC(=O)O)CCN(CC(=O)[O-])CCN(CC(=O)NCC2CCC(C(=O)NC(Cc3ccc4ccccc4c3)C(=O)NCCCCC(NC(=O)NC(CCC(=O)O)C(=O)O)C(=O)O)CC2)CC1.[212Pb+2] (stereo not drawn) gave a tissue uptake of 52.8 ± 26.6 %ID/g (athymic mice, C4-2 prostate cancer xenograft, kidney; intravenous, 2 h, 212Pb-labelled).
The tissue uptake of N=C(N)NCCC[C@@H]1NC(=O)[C@H](CCCCNC(=O)CON=C[C@H](F)[C@@H](O)[C@H](O)[C@H](O)CO)NC(=O)[C@@H](Cc2ccc(O)cc2)NC(=O)[C@H](CC(=O)O)NC(=O)CNC1=O [fluorine-18 labelled] is reported as 0.54 ± 0.31 %ID/g (nude mice U-87 MG tumour, blood; intravenous, 2 h).
O=C([O-])CN1CCN(CC(=O)[O-])CCN(CC(=O)NCCc2ccc3c(c2)C2C=CCC2C(c2cc4c(cc2Br)OCO4)N3)CCN(CC(=O)[O-])CC1.[111In+3] (stereo not drawn) has a tissue uptake of 1.11 ± 0.17 %ID/g (mice with Hec50 tumour xenograft, blood; 2 h, with: G-1 5 µg blocking).
O=C([O-])CN1CCN(CC(=O)[O-])CCN(CC(=O)[O-])CCN(CC(=O)[O-])CC1.[64Cu+2] has a tissue uptake of 1.91 %ID/g (healthy athymic nude mice, liver; intravenous, 1 h).
CCCC[C@H](NC(=O)CN1CCC(NC(=O)CN2CCN(CC(=O)O)CCN(CC(=O)O)CCN(CC(=O)O)CC2)CC1)C(=O)N[C@H]1CC(=O)NCCCC[C@@H](C(N)=O)NC(=O)[C@H](Cc2c[nH]c3ccccc23)NC(=O)[C@H](CCCNC(=N)N)NC(=O)[C@@H](Cc2ccccc2)NC(=O)[C@H](Cc2c[nH]cn2)NC1=O [gallium-68 labelled] has a tissue uptake of 0.1 %ID/g (C57BL/6J mice male B16-F10 tumour, heart; 2 h post injection, unblocked).

Excerpt of the above:
For CCCC[C@H](NC(=O)CNC(=O)CNC(=O)CN1CCN(CC(=O)O)CCN(CC(=O)O)CC1)C(=O)N[C@H]1CC(=O)NCCCC[C@@H](C(N)=O)NC(=O)[C@H](Cc2c[nH]c3ccccc23)NC(=O)[C@H](CCCNC(=N)N)NC(=O)[C@@H](Cc2ccccc2)NC(=O)[C@H](Cc2c[nH]cn2)NC1=O [gallium-67 labelled], the tissue uptake was 11.67 ± 0.06 %ID/g (female C57 mice, B16/F1 melanoma, kidneys; intravenous, 0.037 MBq, 0.5 h).
